Assay results from different studies.
A part holds a random share of what one study measured.

Series 1
Target: Interferon regulatory factor 7, full length, phosphomimetic (IRF7, Homo sapiens, UniProt Q92985, residues 1-503, S101K/S471D/S472D/S475D/S476D/S477D/S483D/S484D/S487D)
Technique: protein-binding microarray
Form: double-stranded DNA, one strand shown
Matrix: in vitro
Tested at: 250 nM
Setting: 60-bp whole probe
With: salmon DNA 0.4 mg/ml
Relative to: random background probes
Reading: higher = stronger binding
Shared flanks, not repeated: GCCTAGCAC … GTCTTGATTCGCTTGACGCTGCTG
Residues (chain): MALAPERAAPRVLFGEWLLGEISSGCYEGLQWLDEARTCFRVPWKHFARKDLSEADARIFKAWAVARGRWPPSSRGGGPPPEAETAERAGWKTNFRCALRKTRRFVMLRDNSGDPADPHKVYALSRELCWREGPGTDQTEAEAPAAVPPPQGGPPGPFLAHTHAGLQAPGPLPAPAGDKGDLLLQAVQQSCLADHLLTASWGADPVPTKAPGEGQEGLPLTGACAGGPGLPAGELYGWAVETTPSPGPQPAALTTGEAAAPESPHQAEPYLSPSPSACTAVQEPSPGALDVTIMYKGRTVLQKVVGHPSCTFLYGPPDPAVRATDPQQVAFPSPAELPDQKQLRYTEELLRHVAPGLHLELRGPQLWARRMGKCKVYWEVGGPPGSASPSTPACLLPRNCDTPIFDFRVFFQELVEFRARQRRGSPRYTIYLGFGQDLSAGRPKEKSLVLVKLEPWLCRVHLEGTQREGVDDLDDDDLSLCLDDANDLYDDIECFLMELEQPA
Strand	log fluorescence [z-score]
GACGAACTGGGTATCGAGACGTGCTAG	-0.183
GACGATTTCCTTCTCCTGACGTGCTAG	0.825
GACGGTTTCCCACTGCTGACGTGCTAG	1.69
GACGGAGTGGGTATCGGGACGTGCTAG	-0.428
GAAACACTAATTTTTACTTTGTGCTAG	0.636
TTAGATTTCAGTATCTATTAGTGCTAG	0.471
GGTGTAAGGAACTGAAGTGAGTGCTAG	-0.75
GACGGTCTCCTACTGCTGCCGTGCTAG	-0.366
TTTTTTTTTGGAATGTCTTCGTGCTAG	0.441
TTACGTTTCCTACTGCTTTAGTGCTAG	1.61
GACGGTATTGGTTTCGGGACGTGCTAG	3.98
TCACTTATCCCTAATCTCACTGTGCTA	0.779
GACGATCTCAGTCTCAAGACGTGCTAG	-0.0293
TTACGTTTCCTTTCCCTTTAGTGCTAG	3.36
GACGATTTCGGGACTAGAGACGTGCTA	0.359
GACGGTCTCGGACTGGGGAGGTGCTAG	0.0412
TTGTTTCTAATATTCTGCTTGTGCTAG	1.96
TCATTTCCATCTCTCAAACTGTGCTAG	3.08
TTAGCTCTCCTACTGCTTTAGTGCTAG	-0.00727

Series 2
Target: RNA binding protein fox-1 homolog 2, RRM domain, GST-SBP tag (RBFOX2, Homo sapiens, UniProt O43251-10, residues 100-194)
Technique: RNA Bind-n-Seq
Form: RNA
Matrix: in vitro
Tested at: 365 nM
Setting: natural RNA segment, single round, ends assumed
Relative to: no-protein control
Reading: higher = stronger binding
Shared flanks, not repeated: GGGAGUUCUACAGUCCGACGAUC … UGGAAUUCUCGGGUGCCAA
Target sequence (chain): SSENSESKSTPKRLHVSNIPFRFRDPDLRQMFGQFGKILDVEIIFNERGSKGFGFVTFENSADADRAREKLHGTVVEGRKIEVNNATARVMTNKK
Strand	RBNS enrichment (R)
AAAUUUUUAAAUCUCCAACUUGCUGUUUCCAAAAAGAAGGUGCAAUAUCAUAUAUCAUCAGUUAGCAAUAUUAGCAUUUCAAUCAGUGAUUUGAAUGUUGAUACUUUUUU	0.721
CAACGUAACUACUGCUCCCCUCUCCUCCGACGCUCCCCCGCGGGGCUCCGGAGGGGACCCAGCUCCUCUGAGCCAUACCAACCAUCGUCCAGCCCUCCUGCACGGAUGCU	0.197
UUGGGGUACACCUUUGGAUGCUAUGGAAAUACGCAGUUUGGUUUCAGAAAAGAUUUAUUAGAAAACCCUCACCCCAACCUGGUGAGGCAGUCACUCAUGACUGGAGGAAA	0.411
GUAGAGUUUUUAGAUUACUUUUUCAAUGUAAAUAAUGUAUAUUUAAUGUCACAAGAAAUUGUUUUCUGCAAAUUCUCUAGUAUAGAAAGUUUUGUAGAAGAAAAAUUAUU	0.864
AUCUGCAGAGAGCUUGGCAGCUCCAGCUCUCCUCAGCAGGCCUCUCCACCCUGAUCUGGCCCCUGUUAGCCCAUGAGCCCUCUUUAUGUACCCAUCCUCCCUUUCUGAAC	0.371
GAACAUUUAAAUAUAUUUAUAUUCCUGGAGAUACACAUUCUCAUUUUUGUUGGUUUAUUAUAAAUUAUUCUUCUAGAUGCAUCUUUUAUAACUAGGAUUUCAUUUUGUGU	3.55
AUCAAUUUUAAUGACGCUCCUGGUAUGGAACCUCAGAUAUACCCUAUUGGAGACAAUCCUUUGAUCAUAAAUUCUCCCCAACUAUAAAUCAUUUUAUGUCUUUAUCAUAG	0.435
AGGGGAACACCCCCUUCCCCAGGUCUUUUAUUUGUUUAAGUUAUUUUUGCACAAAUGACUCUUUUAUAUUUAAUUCGAUUUCAUUGCCUCCCUUCUUAAAGCCAACAGGC	0.962

Series 3
Target: Hepatocyte nuclear factor 3-alpha (Foxa1, Mus musculus, UniProt P35582, residues 1-468, full length assumed)
Technique: EMSA with sequencing
Form: double-stranded DNA, one strand shown
Matrix: in vitro
Tested at: 10 and 20 nM
Setting: whole designed probe, mean of two concentrations, ends assumed
Relative to: negative control set to 0
Reading: higher = stronger binding
Shared flanks, not repeated: GTGAGCGGTGCCCATTGATGGGGAAC … TTTCACTGGGATCGTGGGGAC
Residues (chain): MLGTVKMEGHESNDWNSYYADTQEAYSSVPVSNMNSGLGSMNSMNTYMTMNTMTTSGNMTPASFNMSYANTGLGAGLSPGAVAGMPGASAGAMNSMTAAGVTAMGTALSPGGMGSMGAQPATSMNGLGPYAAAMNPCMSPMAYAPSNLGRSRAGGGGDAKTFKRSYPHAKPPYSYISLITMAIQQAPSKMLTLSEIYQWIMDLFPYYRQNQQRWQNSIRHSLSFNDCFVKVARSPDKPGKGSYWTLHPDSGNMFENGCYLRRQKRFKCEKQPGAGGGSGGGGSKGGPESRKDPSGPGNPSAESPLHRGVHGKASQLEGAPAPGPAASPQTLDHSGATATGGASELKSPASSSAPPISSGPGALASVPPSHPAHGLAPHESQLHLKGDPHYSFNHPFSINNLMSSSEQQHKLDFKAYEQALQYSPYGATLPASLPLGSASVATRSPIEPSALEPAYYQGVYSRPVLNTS
Strand	normalised bound fraction [ratio]
GTGAGGTCCTGAGGCCCAGGGAAGGGCCCAGGGAGCTCCAGGGACAGTGGAGAGAGGCAGAGACGGGCAGTGCTGGAGATAGAACAGTAAGAGTAATCTGGGATGGATAAACAGGGGCTGAGGGGTAAAGTCCAGAAAGGCCCAGCCAAAACCAGCAACCAAGTGGCCTCCAGTTACCCGGTAAGCACTTAGA	-0.0204
TCCTGCTTCTGTTGGCTGTTTCTTCTCTTTGGAGGGGGTCCCATTTCCCCACCTCTTTGCATACGCTGTAATGTTTTGTTGGATACTGCATGTTGTTTATTTAGAGCAGCAGTTCAGACTGAAGTAGGAGCTGTCATCCTGGAGGGGCTCCCTGCCTGTGTTGGGCATGTGGGGGGCTGCTCAGCCAGATCCA	0.418
TGTATCCATCTGGGCAGTATCTTCTCTGGGCCTGGCCTGTCATAGGTGCTTCAGGTTTCCCCATTTGAACCAGATACCAGTCGGGTTACCGGAAGATTGCTTAAAATGAGTCATAGGCTTCCTGCTATTCCTGTGCTGCTTCCAGCTAGGACTGATCGAATCAGTCTGGATTTTCCTTGGGGTGATCCGCAGG	-0.09
AGACTGGGAATCTGAGCAATGCTCATGGCAATAAGCCAGGACCAGGCCCTAAACATCTGGCTGCTCCACTGTATGGATCTTTGGCATGTTAAATGTCAACAGACCTTGTGGATATAAAGTTGACTCAGTCAGAAAACATCTACGGTCTACATGGAAAAGAAAGTCTTTTGGAAAGAAAAGAAGGCAGGGTGTC	0.173
ATCTTCCCCCTCTTCCTTGCCCCACCAGCTCACCTTCCCGGGTTATTTGCAGATAGGAAAATAAATAAAGCCGGCATTCGTTAACGCAGTTCTGGCGCAAACTGCTGTTTGCTCTGCATCTAACATGGTCCTTACGCGACGCCAGGCTCCGGGAGAGCAAAGCACCGTGTCAGGCGCATGATCCGGGCTCGCC	0.358

Series 4
Target: RING finger protein unkempt homolog, zinc fingers 1-6, GST-SBP tag (UNK, Homo sapiens, UniProt Q9C0B0, residues 30-357)
Technique: RNA Bind-n-Seq
Form: RNA
Matrix: in vitro
Tested at: not given
Setting: RNA with constant flanks, ends assumed
Relative to: input RNA pool
Reading: higher = stronger binding
Shared flanks, not repeated: GGGAGUUCUACAGUCCGACGAUC … CAACAGAGGAUUGAGCAUCA
Target sequence (chain): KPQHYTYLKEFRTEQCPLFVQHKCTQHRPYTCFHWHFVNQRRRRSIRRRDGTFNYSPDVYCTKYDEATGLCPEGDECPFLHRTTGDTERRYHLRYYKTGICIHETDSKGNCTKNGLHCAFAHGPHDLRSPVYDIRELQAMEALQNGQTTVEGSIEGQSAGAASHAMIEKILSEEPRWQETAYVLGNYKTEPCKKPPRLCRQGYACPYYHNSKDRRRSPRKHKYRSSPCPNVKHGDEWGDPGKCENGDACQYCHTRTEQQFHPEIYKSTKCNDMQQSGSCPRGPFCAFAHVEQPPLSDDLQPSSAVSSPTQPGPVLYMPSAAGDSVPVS
Strand	bound/input enrichment [ratio]
CCAGUAUUCAACAUGUCAUACAAUCCAGCAGAAAACGCAGUGCUGCUCUGCACCAGAGCAAGCAAUCCCGAGAACAGUACCUACGACCUAUACACCAUCCCCAAAGACGCAGACUCCCAG	0.423
GCUGUCAUGUAUGUAUGCAAGGUGGCAGCUGAGUGGAGAAACACCUUCCACAAGGAUGUUGCCGUUGAUCUGGUGUGUUAUCGACGAAAUGGCCACAAUGAGAUGGACGAACCUAUGUUU	0.0962
ACUUUUGGACUUGAUCAAUUGAAAACCAGAGAAGCCAUUGCCAUGCUCCACAAAGAUGGUACCGAAUUUGCUUUUAAGGAGCCUAAUCCACAAGGGGAGAGCCAUCCACCUUUAAACUUG	0.144
CUUGAAAGUUCGGGGGCAUUUUGUUGUGUUCUGUAGGAGAGAGGGGGAGGACCCUGUUCGGGCCGUUUGGCCGGACUGGUACUGGCCGUUGGAAAACCCGAAGUACAUUUCCGUGUGGAA	0.241
ACUGACACGAUGAUUCAGACUCCUGGACCCUUGCCAACCCCACAGCUCACCUCCACGGUACUCCGAGAAAACAGCCGUCCCAUGGGAGAGCAGAUUCAGGAACCUGAGUCUGAGCAUGGC	0.0675
AAUUUAGAGGAGUAUCUAAGACUGGUUAUAUUCUGGGCACUAAAUGAAGGCGUUUCCCGGCAAUUUGAUUCGUUCAGAGAUGGAUUUGAAUCAGUCUUCCCACUCAGUCAUCUUCAGUAC	0.155
GUUCGCUUGUAUCGUAAAGCAUUAGAAGUCUUCCCAGAGUUUGCUGCUGCCCAUUCAAAUUCCGCAAGUGUACUGCAGCAGCAGGGAAAACUGCAGGAAGCUCUGAUGCAUUAUAAGGAG	0.126
AUGGCACAACUUCUGGAUCUCUCUGUGGAUGAGUCAGAGGCUUUCCUCUCGAAUCCCGUCGUUAACAAGACCAUCUUUGCUAAAGUAGACAGGUUGGCUGGAGUCAUCAACUUCCAGAGA	0.185

Some of these lines once more (series 1):
Strand	log fluorescence [z-score]
TTAGATTTCAGTATCTATTAGTGCTAG	0.471
TTACGTTTCCTACTGCTTTAGTGCTAG	1.61
GACGATTTCCTTCTCCTGACGTGCTAG	0.825
GACGGTTTCCCACTGCTGACGTGCTAG	1.69
GAAACACTAATTTTTACTTTGTGCTAG	0.636
GACGATCTCAGTCTCAAGACGTGCTAG	-0.0293
